Assay results pooled from the literature.
Each numbered part is a random draw from the data of one study; scales do not carry over between parts.

Series 1
Target: Centromere-binding protein 1, full length, His-tagged (CBF1, Saccharomyces cerevisiae, UniProt P17106, residues 1-351)
Chain of UniProt P17106 (whole entry, looked up): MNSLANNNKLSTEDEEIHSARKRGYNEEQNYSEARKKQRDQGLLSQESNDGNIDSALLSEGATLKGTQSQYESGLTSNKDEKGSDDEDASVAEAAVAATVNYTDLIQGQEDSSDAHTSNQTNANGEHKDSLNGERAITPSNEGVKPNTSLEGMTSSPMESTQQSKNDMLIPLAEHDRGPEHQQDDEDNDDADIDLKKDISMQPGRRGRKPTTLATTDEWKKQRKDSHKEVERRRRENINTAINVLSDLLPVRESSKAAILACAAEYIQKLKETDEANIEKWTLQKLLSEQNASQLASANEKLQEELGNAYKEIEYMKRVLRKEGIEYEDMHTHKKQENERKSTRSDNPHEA
Technique: competition protein-binding microarray
Molecule type: double-stranded DNA, one strand shown
Matrix: in vitro
Concentration: 2 µM
Notes: whole 60-bp probe, lowest competitor level
Added: Pho4 competitor, 0.05 µM
Reading: higher = stronger binding
Quantity: fluorescence intensity
Shared flanks, not repeated: … GTCTTGATTCGCTTGACGCTGCTG
TCGAGCCAGATCCCGCTCGTGGGACTGTTCATTCTG: 57.1 a.u.
TGGATAAAATTTAAGCGCGTGAAATTGGAATCTAAA: 104 a.u.
TGCGCAACAACTTGGTCTGTGGGTGTATGTCTAGAA: 57.5 a.u.
GTCTTGTCTCATTGATGCGTGGGTGTCCCCACTTCA: 75.8 a.u.
TGCGCAACAACTTTTCACGTGCAATTATGTCTAGAA: 1540 a.u.
TAAATAATGGTTTTTCACGTGCATCGAGTCCGTACT: 917 a.u.
TTCGGGTGCCAATTTAGCGTGCTTTGATCTAACTAT: 67.7 a.u.
TGCGCAACAACTTGTCACGGCACTTTATGTCTAGAA: 82.5 a.u.

Series 2
Target: Ras GTPase-activating protein-binding protein 1, full length (G3BP1, Homo sapiens, UniProt Q13283)
Chain of UniProt Q13283 (whole entry, looked up): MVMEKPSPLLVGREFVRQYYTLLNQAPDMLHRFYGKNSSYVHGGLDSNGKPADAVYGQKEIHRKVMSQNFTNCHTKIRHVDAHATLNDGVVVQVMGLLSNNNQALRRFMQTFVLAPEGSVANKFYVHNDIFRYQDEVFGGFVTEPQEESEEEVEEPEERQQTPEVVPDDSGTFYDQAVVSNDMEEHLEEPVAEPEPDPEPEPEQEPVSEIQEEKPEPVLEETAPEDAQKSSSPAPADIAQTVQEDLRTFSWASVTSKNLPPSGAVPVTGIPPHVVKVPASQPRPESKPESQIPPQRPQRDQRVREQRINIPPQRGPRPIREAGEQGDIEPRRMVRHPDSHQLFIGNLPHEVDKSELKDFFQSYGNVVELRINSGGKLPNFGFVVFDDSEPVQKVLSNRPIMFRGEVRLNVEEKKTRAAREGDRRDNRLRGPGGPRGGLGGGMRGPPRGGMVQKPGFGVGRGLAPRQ
Technique: RNA Bind-n-Seq
Molecule type: RNA
Matrix: in vitro
Concentration: 200 nM
Notes: whole 134-nt RNA, ends assumed
Added: 150 mM LiCl
Relative to: input library
Reading: higher = stronger binding
Quantity: log2 enrichment
Each molecule: 7-deaza-guanosine replaces G
GGGAGUUCUACAGUCCGACGAUCCACACACAACACGCACCCACACAGACACAGAGGGAAGGGGUUGGGAUGGGGACAGGGUGCACAGCAGGGCGGGGUAGGACCCCAGCCCCUUGGAAUUCUCGGGUGUCAAGG: -0.0927
GGGAGUUCUACAGUCCGACGAUCUAACUUUAGAGGAGGAUCUGAUGGAUAUGGCAGUGGACGUGGAUUUGGGGAUGGCUAUAAUGGGUAUGGAGGAGGACCUGGGGGUGGCAAUGGAAUUCUCGGGUGUCAAGG: -0.16
GGGAGUUCUACAGUCCGACGAUCAGUCCUGUGCUACACAUCGUAUGUACCGAAUCGGAAAAAGGAAAAAGGGGAAAAAGGAAAGUAUUAUGUUACGCCGUUCGGAUCUGCACUUGGAAUUCUCGGGUGUCAAGG: -1.17
GGGAGUUCUACAGUCCGACGAUCUGUUCUGCAGAGGGGCGGUGUCAUUACUGAUGAAGAGGAAACCUCUAAGAAGAUAGCUGACCAGUUGGACAACAUUGUGGACAUGCGCGAUGGAAUUCUCGGGUGUCAAGG: -2.72

Series 3
Target: Histone acetyltransferase KAT6A, winged helix 1, GST fusion (KAT6A, Homo sapiens, UniProt Q92794, residues 1-85)
Technique: protein binding microarray
Molecule type: double-stranded DNA, one strand shown
Matrix: in vitro
Concentration: not given
Notes: 8-mer, flanks averaged, mean of 2 arrays, mostly near background
Relative to: not given
Reading: higher = stronger binding
Quantity: E-score
Construct (chain): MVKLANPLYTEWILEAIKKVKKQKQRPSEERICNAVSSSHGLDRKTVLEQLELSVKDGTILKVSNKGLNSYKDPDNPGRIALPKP
GCCGTAAC: 0.429
ACCTTCTC: -0.222
CTTGCTTC: -0.244
GAGAATCA: -0.0733
AGGTTTAC: -0.124

Further values, each from its own experiment
PhoQ, residues 284 288 289 292 302 303 AGCYAI  fold induction (PhoP, residues 12 14 15 18 19 SMASL (Escherichia coli, UniProt P23836); Sort-seq, refers to: YFP reporter; E. coli; PhoQ-PhoP variant library, added: 10 µM Mg2+; relative to: high Mg2+ state, higher = stronger signaling): 0.738

Repeated from above (series 1):
TTCGGGTGCCAATTTAGCGTGCTTTGATCTAACTAT: 67.7 a.u.
TGCGCAACAACTTGTCACGGCACTTTATGTCTAGAA: 82.5 a.u.
